Results gathered from unrelated publications.
Numbered parts are unrelated; each lists some results of a single study.

Block 1
Target: Replicase polyprotein 1ab, polymerase (rep, Severe acute respiratory syndrome coronavirus 2, UniProt P0DTD1)
Observed: enzyme activity
Mode: inhibitor
Tested at: 20 µM
SMILES	inhibition [%]
O=Nc1c(-c2c(O)[nH]c3ccccc23)[nH]c2ccccc12	15.7
CN(C)CCCNC(=O)c1ccc(-c2cc(O)c3ncccc3c2)cc1	4.04
FC(F)(F)c1cc(NC(=S)Nc2ccc(Br)cc2-c2nn[nH]n2)cc(C(F)(F)F)c1	11.6
C=CC1=C(C)c2cc3[nH]c(cc4nc(cc5[nH]c(cc1n2)c(C)c5CCC(=O)O)C(CCC(=O)O)=C4C)c(C)c3C=C	112
O=C(NCc1ccccn1)Nc1nnc(-c2ccco2)o1	3.17
CN(C)C(=O)Nc1cccc(-c2ccc(N(C)C)cc2)c1	-1.99
O=C(c1ccc(-c2ccc(Cl)cc2)o1)N(Cc1ccccn1)c1ccc(N2CCNCC2)cc1	1.38
Nc1nc2c(ncn2[C@@H]2O[C@H](CO)[C@@H](O)[C@H]2O)c(=O)[nH]1	-1.97
Cc1ccccc1N1C(=O)c2cc(S(N)(=O)=O)c(Cl)cc2NC1C (centres unmarked)	3.28
COc1ccccc1C(=O)Nc1cccc(NC(=O)c2cccc(C)c2)c1	-2.42
CCCn1c(=O)c2[nH]c(-c3cnn(Cc4cccc(C(F)(F)F)c4)c3)nc2n(CC)c1=O	1.05
C[C@H](NC(=O)[C@@H](O)c1cc(F)cc(F)c1)C(=O)N[C@@H]1C(=O)N(C)c2ccccc2-c2ccccc21	-1.39
CN1CC[C@@]2(C)c3cc(O)ccc3N(C)[C@@H]12	-2.51
COC(=O)[C@H](NC(=O)c1cc(-c2ccccc2)nc2ccccc12)c1ccccc1	2.58
CN1Cc2c(C(=O)OC(C)(C)C)ncn2-c2ccsc2C1=O	0.95
O=C(Nc1cccc(Nc2ncc(Br)c(NCCc3cnc[nH]3)n2)c1)N1CCCC1	-6.54
CC(=O)O[C@H]1Cc2ccccc2N(C(N)=O)c2ccccc21	-4.09
O=S(=O)(O)c1cc(O)ccc1O	1.4
CCCC(=O)Nc1cccc(NC(=O)c2ccccc2Br)c1	-2.31
CCN(CC)CCOCCOC(=O)C(CC)(CC)c1ccccc1	-9.77
CO/N=C(\C(=O)N[C@@H]1C(=O)N2C(C(=O)OC(C)OC(C)=O)=C(COC(N)=O)CS[C@H]12)c1ccco1 (some centres unmarked)	0.04
NC1(Cc2ccc(Cl)cc2)CCN(c2ncnc3[nH]ccc23)CC1	3.06
Oc1cc(O)cc(/C=C/c2ccc(O)c(O)c2)c1	11

Block 2
Target: Replicase polyprotein 1ab, main protease (rep, Severe acute respiratory syndrome coronavirus 2, UniProt P0DTD1)
Observed: enzyme activity
Mode: inhibitor
Tested at: 20 µM
Setting: primary screen
Compound	inhibition [%]
Cc1ccccc1N(C)C(=O)c1ccc([S+]([O-])c2nccs2)c([N+](=O)[O-])c1 (centres unmarked)	96.7
CCCCCCCCCCCCCCSCC(=O)O	27.3
Cn1sc(=O)n(Cc2ccccc2)c1=O	101

Block 3
Target: RNA binding protein fox-1 homolog 2, RRM domain, GST-SBP tag (RBFOX2, Homo sapiens, UniProt O43251-10, residues 100-194)
Method: RNA Bind-n-Seq
Form: RNA
Medium: in vitro
Tested at: 365 nM
Setting: natural RNA segment, single round, ends assumed
Reference: no-protein control
Direction: higher = stronger binding
All sequences stand within: GGGAGUUCUACAGUCCGACGAUC … UGGAAUUCUCGGGUGCCAA
Strand	RBNS enrichment (R)
CAACCUUCCCCAGCUCCAAUAUGUAGCAGUCUCUCUGGAUGGCGGAGAGUGAAGGAGACGGAGAAACGCGCCCCAUCCCUUCCGCCGCCUCCUUUCCCCCCCGACCCUAU	0.492
GAAGCUGGCUGUUUAAGGGAACCCAGAAGUGAAUUCUUUUGUAAAGUAAAGCACCCUUUUGUAAUGCAAUUAAUUAUCCCUUAAUGUAUCUGUUUUGUAAGUCUGCAUUU	0.792
UAAGGGUAAAGUUUCACAGCUGACAUUAGCCUGAGGAUUAGCACUAAAGAGCUGUGUUUUCAUAGCAGGGGCUAUUGUACAGACAGUGAUAACCAAAUAGUAAUAUGCCA	0.433
GCAAGGUUGCUGGAGGGGGCCCUGGCCCCAGGGAGGAGGGACACGGGGAGGAACUUCUGGGGCUCCUGCUGGGGCCACUUCCUGGGCUGCUCCCUCGGGCCUGUAGGGGG	0.553
CCAGAAACUGUCGAUGACUCCGAAGAUUUACCAGAGUGUCAAUCUCUCACCGGGUGAUUCAUCAAAUUACCUACCAAGAGCUCCAAGAGGGGCUCCCUGCAAUGGACGAG	0.372
UUGUAUUUUUAAAAUACAGGAGGGCGGGCGCUAACCAGAUCUUGACUGAUAUGGAAACGUACUUUUGUAUUUCAUGCUCAAGAGGAGUUUUGUUUUUGCUUUUUGUUGUU	0.52
CAUCUACCAUAUAGCAAGUUUAGUAAGGGAAGGCAGCAUACGUCCCAGGGACAGUGGGUUUGGAUCUGUCUAGAACAGCGGUUUGUGGCUGUGGCCCAGCUCCGAGAGUG	2.62
AAAAAAAAAAGAAUAGGUAAAUUGACAAGAAAUAUUUAUUGUUUUCCCUUAUUGCCUUAUUGUCCCUGGCCACAAACUGUUCAUCUCUUCUCUAAUGUGUAAGUGGAGCC	0.499

Block 4
Target: Histone acetyltransferase KAT6A, both winged helices, GST fusion (KAT6A, Homo sapiens, UniProt Q92794, residues 1-181)
Method: protein binding microarray
Form: double-stranded DNA, one strand shown
Medium: in vitro
Tested at: not given
Setting: 8-mer, flanks averaged, mean of 2 arrays, mostly near background
Reference: not given
Direction: higher = stronger binding
Target sequence (chain): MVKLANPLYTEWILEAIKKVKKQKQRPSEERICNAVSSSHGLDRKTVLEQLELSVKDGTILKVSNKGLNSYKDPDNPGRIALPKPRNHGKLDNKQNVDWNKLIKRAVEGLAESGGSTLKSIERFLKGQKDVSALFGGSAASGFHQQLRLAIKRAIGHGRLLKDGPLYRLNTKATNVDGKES
Strand	E-score
AGCCTGGG	-0.108
AGAAGCTG	-0.106
ATTCCTCC	-0.105
AATATGTG	-0.0288
CAAAAACC	-0.0291
CGGCGTAA	0.29
CTCCAAAC	-0.0508
ACACCCAG	-0.197

Block 5
Target: Interferon regulatory factor 5, full length, phosphomimetic (IRF5, Homo sapiens, UniProt Q13568-2, residues 1-514, K96S/S451D/S453D/S456D/S462D)
Method: protein-binding microarray
Form: double-stranded DNA, one strand shown
Medium: in vitro
Tested at: 250 nM
Setting: 60-bp whole probe
With: salmon DNA 0.4 mg/ml
Reference: random background probes
Direction: higher = stronger binding
All sequences stand within: GCCTAGCAC … GTCTTGATTCGCTTGACGCTGCTG
Strand	log fluorescence [z-score]
GTCGGTCTCCTTTTCCTGACGTGCTAG	0.528
GATGGTCTCCTTATCCTGACGTGCTAG	0.0681
GACGGTCTCCTACTGCAGACGTGCTAG	-0.285
GACGGTATCGGTCTAGGGACGTGCTAG	6.22
TCATGTGTAGGTCTTAAACTGTGCTAG	-0.502
GGCGGACTGGGTATCGGGACGTGCTAG	-0.032
TTAGATTTCGTGTATCGATTAGTGCTA	4.61
TCATTTTAAGTTCTCTGACTGTGCTAG	0.2

Block 6
Organism: Vesicular stomatitis virus
Observed: pseudovirus infection
Method: FDA-approved drug library screen
Tested at: concentration not given
Setting: SARS-CoV-2 spike pseudotype
Reference: vehicle
Compound	GFP-positive cells
O=C([O-])[C@H](O)[C@@H](O)[C@H](O)[C@H](O)CO.[Na+]	122%
CN1CCN(C2=Nc3ccccc3Oc3ccc(Cl)cc32)CC1.O=C(O)CCC(=O)O	59.2%
Cl.NCC(=O)CCC(=O)O	91.7%
